Experimental data of several laboratories.
Protocols differ between the studies behind these lines. ± marks the error that the study gave.

SMILES	assay	test system	conditions	quantity	value
O=c1c2cc([N+](=O)[O-])ccc2n(CCN2CCCCC2)n1Cc1ccccc1	resazurin	peritoneal macrophages, BALB/c mice	48 h, 10% FBS	CC50	12.1 ± 5.9 µM
CC(C)(O)c1ccc(N2Cc3c(ccnc3-c3ccc(F)cc3OCC(F)(F)F)C2=O)cc1		male C57BL/6 mouse, brain	oral, 10 mg/kg, single dose	MRT	7.3 h
Cn1c(=O)oc2ccc(-c3ccc(CC(C#N)NC(=O)C4CNCCCO4)c(F)c3)cc21 (stereo not shown)	measured: mouth ulceration	human volunteers	oral	treatment-emergent adverse event incidence	7.4%
CN(Cc1ccc(F)cc1)Cc1cc(=O)oc2cc(O)ccc12		HepG2 cell medium	0.5 mM, 60 min	remaining intact compound	> 99%
CNC(=N)NC(=N)NCCCCCCNC(=N)NC(=N)NC		Caco-2	5 µM, 2 h	efflux ratio	0.6
NC12CNCCNCC(NCc3ccc(CNC(=O)CCCC(=O)NCc4ccc(-c5nncnn5)cc4)cc3)(CNCCNC1)CNCCNC2.[64Cu+2]	OLINDA dosimetry	kidneys	24 h pretargeting interval, added: huA33-TCO pretargeting	mean absorbed dose	0.066 rad/mCi
O=C(CCCCC[N+]#[C][99Tc-5]([C]#[N+]CCCCCC(=O)N[C@H]1C(O)O[C@H](CO)[C@@H](O)[C@@H]1O)([C]#[N+]CCCCCC(=O)N[C@H]1C(O)O[C@H](CO)[C@@H](O)[C@@H]1O)([C]#[N+]CCCCCC(=O)N[C@H]1C(O)O[C@H](CO)[C@@H](O)[C@@H]1O)([C]#[N+]CCCCCC(=O)N[C@H]1C(O)O[C@H](CO)[C@@H](O)[C@@H]1O)[C]#[N+]CCCCCC(=O)N[C@H]1C(O)O[C@H](CO)[C@@H](O)[C@@H]1O)N[C@H]1C(O)O[C@H](CO)[C@@H](O)[C@@H]1O (stereo partly shown)		nude mouse with U87 MG xenograft		tumour/brain ratio	19 ± 0.71
CC(C)(C)NCC(SS(=O)(=O)O)c1ccccc1 (stereo not shown)		Swiss Webster CFW mouse, female, plasma	intravenous, 15 mg/kg, from 0 h to infinity	AUC(0-inf)	2560 ng·h/mL
C[Si](C)(C)C[C@H](CN)CC(=O)O		male Sprague-Dawley rat, plasma	oral, 30 mg/kg, 1 h, single dose	concentration	~100 µM
N=C(N)NCCC[C@@H]1NC(=O)[C@H](Cc2c[nH]c3ccccc23)NC(=O)[C@@H](CC2CCCCC2)NC(=O)[C@@H]2CCCN2C(=O)[C@@H](NC(=O)CCc2ccccc2)CCCNC1=O		C57BL/6J mice, brain	intraperitoneal, 1 mg/kg	Cmax	156 ng/g
